Experimental data of several laboratories.
Compare with care: the assays were run in different laboratories.
Cell line: MDCK-MDR1

Compound | setting | how to read | quantity | value
Clc1ccc(-n2c(-c3ccccc3Cl)nc3c(N4CCC(Nc5ccccc5)CC4)ncnc32)cc1 | 10 µM, 1 h, pH 7.4, 37 °C |  | permeability A to B | 0%
CC(C)CN(C[C@@H](O)[C@H](Cc1ccccc1)NC(=O)O[C@H]1CCOC1)S(=O)(=O)c1ccc(N)cc1 | 2 h, together with: 0.25% BSA |  | Papp | 2.73 ×10⁻⁶ cm/s
CC(C(=O)NC1CCN(c2ncnc3c2nc(-c2ccccc2Cl)n3-c2ccc(Cl)cc2)CC1)c1ccccc1 (stereo not shown) | 10 µM, 1 h, pH 7.4, 37 °C |  | permeability A to B | < 0.1%
Cc1c(Br)cc(NC(=O)NS(=O)(=O)O)cc1Br | MDR1 inhibited |  | Papp | 0.057 ×10⁻⁶ cm/s
C#C[C@]1(O)CC[C@H]2[C@@H]3CCc4cc(O)ccc4[C@H]3CC[C@@]21C | pH 7.4 |  | Papp | 64.5 ×10⁻⁶ cm/s
O=C(NC1CCN(c2ncnc3c2nc(-c2ccccc2Cl)n3-c2ccc(Cl)cc2)CC1)c1ccc(F)cc1F | 10 µM, 1 h, pH 7.4, 37 °C |  | permeability A to B | < 0.1%
O=C(Nc1nc2ccccc2s1)C(c1ccccc1)S(=O)(=O)O (stereo not shown) | MDR1 inhibited |  | Papp | 0.011 ×10⁻⁶ cm/s
CCCC#Cc1ccc([C@@H](CO)C(=O)N[C@H](C)c2ccccc2)cc1 |  | reference: B-to-A over A-to-B | efflux ratio | 1.1
Cc1c(Br)cc(NC(=O)C(c2ccccc2)S(=O)(=O)O)cc1Br (stereo not shown) | MDR1 inhibited |  | Papp | 0.55 ×10⁻⁶ cm/s
CO[C@H]1C[C@@H]2CC[C@@H](C)[C@@](O)(O2)C(=O)C(=O)N2CCCC[C@H]2C(=O)O[C@H]([C@H](C)C[C@@H]2CC[C@@H](O)[C@H](OC)C2)CC(=O)[C@H](C)/C=C(\C)[C@@H](O)[C@@H](OC)C(=O)[C@H](C)C[C@H](C)/C=C/C=C/C=C/1C | 2 h, together with: 0.25% BSA |  | Papp | 0.48 ×10⁻⁶ cm/s

Some of these lines once more:
Compound | setting | how to read | quantity | value
O=C(Nc1nc2ccccc2s1)C(c1ccccc1)S(=O)(=O)O (stereo not shown) | MDR1 inhibited |  | Papp | 0.011 ×10⁻⁶ cm/s
